Earlier results as cited in several papers.
Each line is one published result; not all experiments were run side by side. “And” joins repeats or separate records; there may be more than shown. ± gives the spread as reported.

The Cmax of `CN(CCOc1ccc(CC2SC(=O)NC2=O)cc1)c1ccccn1` (centres unmarked) is reported as 1500 nM (human, plasma; oral, 8 mg single dose).
For `CC(C)NCC(O)c1ccc(NS(C)(=O)=O)cc1` (racemic), the Cmax was 18400 nM (human, plasma; concentration not given, highest clinical total).
`COc1cccc(CCc2ccccc2OCC(CN(C)C)OC(=O)CCC(=O)O)c1` (racemic) has a Cmax of 1700 nM (human; 100 mg single dose, highest mean clinical value).
`Cc1ccc(/C=C2/C(=O)C3(C)CCC2C3(C)C)cc1` (centres unmarked) gave a Cmax of 51.9 ng/mL (human, male, plasma; dermal, 22 mg/kg, sunscreen 4% compound; geometric mean).
`COc1cc(CCC(=O)O)ccc1O` has a Cmax of 385 nM (healthy human, plasma; oral, 412 µmol chlorogenic acids in coffee, 200 mL coffee).
With `CC(=O)Oc1ccccc1C(=O)O` the Cmax was 111000 nM (human, plasma; concentration not given, highest clinical total).
`CNC(=O)c1ccccc1Sc1ccc2c(/C=C/c3ccccn3)n[nH]c2c1` has a Cmax of 56 nM (human, plasma; concentration not given, total concentration).
For `O=C(CCCN1CCC(O)(c2ccc(Cl)cc2)CC1)c1ccc(F)cc1`, the Cmax was 106 nM (human, plasma; concentration not given, highest clinical total).
For `COc1ccc2[nH]c([S+]([O-])Cc3ncc(C)c(OC)c3C)nc2c1` (centres unmarked), the Cmax was 4150 nM (human, plasma; highest proposed clinical dose).
`CC(C)(C)NCC(O)COc1cccc2c1CC(O)C(O)C2` (centres unmarked) gave a Cmax of 430 nM (human, plasma; concentration not given, total concentration).
`CN1CCN(c2ccc3nc(-c4c(N)c5c(F)cccc5[nH]c4=O)[nH]c3c2)CC1` has a Cmax of 223 ± 128 ng/mL (human; oral, 500 mg once daily, day 1).
The Cmax of `CC(=O)Oc1cccc2c1C(=O)c1c(OC(C)=O)cc(C(=O)O)cc1C2=O` is reported as 13000 nM (human, plasma; concentration not given, total concentration).
For `C1=C/COCc2cc(ccc2OCCN2CCCC2)Nc2nccc(n2)-c2cccc(c2)COC/1`, the Cmax was 22500 nM (human patients, plasma; dose not given).
With `NC(=O)N1c2ccccc2CC(=O)c2ccccc21` the Cmax was 1000 nM (human, plasma; 1200 mg eslicarbazepine acetate once daily).
`CCN1C(=O)N(c2c(F)c(OC)cc(OC)c2F)Cc2cnc3[nH]c(CN4CCOCC4)cc3c21` gave a Cmax of 55.2 nM (healthy human volunteers; oral, 4.5 mg single dose, geometric mean).
`CCOc1cc2ncc(C#N)c(Nc3ccc(OCc4ccccn4)c(Cl)c3)c2cc1NC(=O)/C=C/CN(C)C` gave a Cmax of 146 nM (human patients, plasma; dose not given).
For `O=C(CCCCCCC(=O)Nc1ccccc1)NO`, the Cmax was 430 to 2980 nM (human, plasma; oral, 400 mg once daily, with food).
With `CCCS(=O)(=O)Nc1ccc(F)c(C(=O)c2c[nH]c3ncc(-c4ccc(Cl)cc4)cc23)c1F` the Cmax was 125000 nM (human, plasma; 960 mg, highest approved dose).
For `O=C1Nc2ccc(Cl)cc2[C@@](C#CC2CC2)(C(F)(F)F)O1`, the Cmax was 9200 to 16600 nM (human, plasma; 600 mg once daily, steady state).
`CNCCCC12CCC(c3ccccc31)c1ccccc12` has a Cmax of 230 nM (human; concentration not given).
`COc1cccc2c1C(=O)c1c(O)c3c(c(O)c1C2=O)C[C@@](O)(C(=O)CO)C[C@@H]3O[C@H]1C[C@H](N)[C@H](O)[C@H](C)O1` has a Cmax of 1000 nM (human, normal weight, plasma; intravenous infusion, 60 mg/m^2, 40 min infusion).
`CC1=C(/C=C/C(C)=C/C=C/C(C)=C/C(=O)O)C(C)(C)CCC1` gave a Cmax of 1310 nM (human, plasma; concentration not given, maximum therapeutic).
The Cmax of `Cn1cncc1[C@@](N)(c1ccc(Cl)cc1)c1ccc2c(c1)c(-c1cccc(Cl)c1)cc(=O)n2C` is reported as 634 ± 374 ng/mL (human patients without enzyme-inducing antiepileptics; oral, 300 mg twice daily, day 1).
`O=C(CCCN1CCC(O)(c2ccc(Cl)cc2)CC1)c1ccc(F)cc1` gave a Cmax of 27 nM (human, plasma; concentration not given, total concentration).
For `CCOc1ccc(Cc2cc([C@@H]3O[C@H](SC)[C@@H](O)[C@H](O)[C@H]3O)ccc2Cl)cc1`, the Cmax was 165 ng/mL (healthy human subjects; oral, up to 500 mg once daily, multiple doses, day 7, liquid formulation).
The Cmax of `CN[C@H]1CC[C@@H](c2ccc(Cl)c(Cl)c2)c2ccccc21` is reported as 86 ng/mL and 86.1 ng/mL (human; 200 mg/day).
`C#Cc1cccc(Nc2ncnc3cc(OCCOC)c(OCCOC)cc23)c1` has a Cmax of 872 ± 399 ng/mL (human; oral, 150 mg once daily, day 1).
`C[C@@H](Oc1cc(-c2cnn(C3CCNCC3)c2)cnc1N)c1c(Cl)ccc(F)c1Cl` gave a Cmax of 220 nM (human, plasma; concentration not given, total concentration).
The Cmax of `CC1(C)S[C@@H]2[C@H](NC(=O)[C@H](N)c3ccc(O)cc3)C(=O)N2[C@H]1C(=O)O` is reported as 159000 nM (human, plasma; concentration not given, highest clinical total).
`Cc1cc(-c2ccc(C(=O)[C@@H]3CCCC[C@H]3C(=O)Nc3cnn4c3C(=O)NCC4)cc2)n[nH]1` gave a Cmax of 3210 nM (human, non-Japanese; oral, 360 mg multiple doses, day 10, geometric mean).
`O=C(O)Cc1ccccc1Nc1c(Cl)cccc1Cl` has a Cmax of 4000 nM (human, plasma; oral, 50 mg).
With `COc1c2occc2cc2ccc(=O)oc12` the Cmax was 1500 nM (human, plasma; concentration not given, total concentration).
`O=C(CCCN1CC=C(n2c(=O)[nH]c3ccccc32)CC1)c1ccc(F)cc1` has a Cmax of 4100 nM (human, plasma; concentration not given, highest clinical total).
With `C[C@]12C=CC(=O)C=C1CC[C@H]1[C@@H]3C[C@@H](O)[C@](O)(C(=O)CO)[C@@]3(C)C[C@H](O)[C@@]12F` the Cmax was 27 nM (human, plasma; concentration not given, total concentration).
For `CC(C)NCC1CCc2cc(CO)c([N+](=O)[O-])cc2N1` (centres unmarked), the Cmax was 7100 ± 1000 nM (healthy human; oral, 1000 mg).
